Results pooled from the literature.
Protocols differ between the studies behind these lines. Numbers after ± are the reported error.
hdac10: Polyamine deacetylase HDAC10 (hdac10, Danio rerio, UniProt F1QCV2)
CDK4 with cyclin D3: Cyclin-dependent kinase 4, with cyclin D3 (CDK4, Homo sapiens, UniProt P11802)
ELANE: Neutrophil elastase (ELANE, Homo sapiens, UniProt P08246)
Ectonucleoside triphosphate diphosphohydrolase 3: Ectonucleoside triphosphate diphosphohydrolase 3 (Homo sapiens, UniProt O75355)
PNLIP: Pancreatic triacylglycerol lipase (PNLIP, Sus scrofa, UniProt P00591)
AKR1C2: Aldo-keto reductase family 1 member C2 (AKR1C2, Homo sapiens, UniProt P52895)
Sigmar1: Sigma non-opioid intracellular receptor 1 (Sigmar1, Rattus norvegicus, UniProt Q9R0C9)
PTK6: Protein-tyrosine kinase 6 (PTK6, Homo sapiens, UniProt Q13882)
AMY2: Pancreatic alpha-amylase (AMY2, Sus scrofa, UniProt P00690)
PDK1: [Pyruvate dehydrogenase (acetyl-transferring)] kinase isozyme 1, mitochondrial (PDK1, Homo sapiens, UniProt Q15118)

| Compound | target | test | system | setting | inhibition |
| --- | --- | --- | --- | --- | --- |
| O=C(/C=C/c1ccc2c(c1)sc1ccccc12)NO | hdac10 |  |  | 1 µM | 54% |
| COc1ccc(N2C(=O)CSC2c2cccc(Br)c2)c(OC)c1 (stereo not drawn) | ACTR3/Actin-related protein 2 (Homo sapiens, UniProt P61158+P61160) | actin polymerization, pyrenyl-actin |  | concentration not given | inhibited |
| Cc1nc2cc(-c3cc4c(cc3F)NC(=O)CO4)cc(Cl)c2o1 | Programmed cell death 1 ligand 1, with PD-1 (CD274, Homo sapiens, UniProt Q9NZQ7) | PD-1/PD-L1 binding, inhibitor, TR-FRET |  | 25 µM | ≥ 20% |
| Nc1ccccc1NC(=O)c1ccc(Nc2nccc(-c3cn(C4CCCC4)nn3)n2)cc1 | CDK4 with cyclin D3 | enzyme activity, inhibitor, TR-FRET |  | 50 nM | -0.72% |
| O=c1[nH]c2ccccc2n1CCCCCN1CCN(c2ccc(F)cc2)CC1 | 5-hydroxytryptamine receptor 7 (HTR7, Homo sapiens, UniProt P34969) | cAMP production | HEK293 expressing h5-HT7R | concentration not given | ~75% |
| CCc1nc2ccccc2n1S(=O)(=O)c1ccc2c(c1)C(=O)CC2=O | ELANE | enzyme activity, inhibitor, fluorescence |  | 100 µM | 70.1% |
| O=C(c1cccc(S(=O)(=O)NC2CC2)c1)N1CCOCC1 | Ectonucleoside triphosphate diphosphohydrolase 3 | enzyme activity, inhibitor, absorbance |  | 100 µM | 41% |
| O=C(O[C@H]1Cc2c(O)cc(O)cc2O[C@@H]1c1ccc(O)c(O)c1)c1cc(O)c(O)c(O)c1 | PNLIP | enzyme activity, inhibitor |  | 10 µM | 96.4% |
| CN(C)S(=O)(=O)c1ccc(S(=O)(=O)N2CCC(n3c(=O)[nH]c4ccccc43)CC2)cc1 | mfd (Escherichia coli, UniProt P30958) | ATP binding, ITC |  | concentration not given | ~70% |
| Clc1ccc(-c2cs/c(=N/N=C/c3ccc(N4CCOCC4)cc3)n2-c2cccc3ccccc23)cc1 | Carbonic anhydrase 2 (CA2, Bos taurus, UniProt P00921) | enzyme activity, inhibitor, absorbance |  | 500 µM | 80.5% |
| C[C@H](NC(=O)CNC(=O)[C@H](Cc1ccc(O)cc1)NC(=O)[C@@H](N)CSSC[C@H](N)C(=O)N[C@@H](Cc1ccc(O)cc1)C(=O)NCC(=O)N[C@@H](C)C(=O)N[C@@H](CCCCN)C(N)=O)C(=O)N[C@@H](CCCCN)C(N)=O | Calpain-10, mitochondrial (Oryctolagus cuniculus, UniProt G1TPK4) | enzyme activity | mitochondrial matrix | 1 µM, 15 min preincubation | > 90% |
| COc1ccc2c(c1)CC[C@@H]1[C@@H]2CC[C@@]2(C)C(=O)CC[C@@H]12 | AKR1C2 | enzyme activity, inhibitor, absorbance |  | 100 µM, pH 9 | 35% |
| Oc1ccc2cccc(O)c2n1 | 1-deoxy-D-xylulose 5-phosphate reductoisomerase (Escherichia coli K-12, UniProt P45568) | enzyme activity, inhibitor, absorbance |  | 100 µM | 100% |
| C[C@]12CC[C@@H]3c4cc(I)c(O)cc4CC[C@H]3[C@@H]1CCC2=O | AKR1C2 | enzyme activity, inhibitor, absorbance |  | 10 µM, pH 9 | 20.2% |
| COc1ccc(-c2nc(CN3CCN(C(=O)c4ccc(C(C)(C)C)cc4)CC3)no2)cc1 | Sodium channel protein type 9 subunit alpha (SCN9A, Homo sapiens, UniProt Q15858) | sodium current, whole-cell patch clamp | HEK293, stable | 20 µM | 3 ± 1% |
| C[C@]12CC[C@@H]3c4ccc(O)cc4CC[C@H]3[C@@H]1CCC2=O | AKR1C2 | enzyme activity, inhibitor, absorbance |  | 100 µM, pH 9 | 50% |
| C/C(=N\OCCCN1CCCC1)c1ccc(C(F)(F)F)cc1 | Sigmar1 | radioligand binding |  | 1 µM | 54.7% |
| CN(C)c1ccc(C(=O)NCC2CCC(C(=O)NO)CC2)cc1 (stereo not drawn) | hdac10 |  |  | 0.1 µM | 11% |
| O=C(O)c1cc(S(=O)(=O)Nc2ccc(Br)cc2)ccc1Cl | Ectonucleoside triphosphate diphosphohydrolase 3 | enzyme activity, inhibitor, absorbance |  | 100 µM | 37% |
| C[C@]12CC[C@@H]3c4ccc(O)c(Br)c4CC[C@H]3[C@@H]1CCC2=O | AKR1C2 | enzyme activity, inhibitor, absorbance |  | 10 µM, pH 9 | 73% |
| CCOc1c(C(C)(C)O)sc2cnc(Nc3ccc(N4CCC(N5CC6(COC6)C5)CC4)cc3OC)nc12 | Calcium/calmodulin-dependent protein kinase type II subunit gamma (CAMK2G, Homo sapiens, UniProt Q13555) | enzyme activity, inhibitor |  | 0.1 µM | 98% |
| CN(CCON=C(c1ccc(C(F)(F)F)cc1)C(F)(F)F)Cc1ccccc1 (mixture of isomers) | Sigmar1 | radioligand binding |  | 10 µM | 102% |
| O=C(O[C@@H]1Cc2c(O)cc(O)cc2O[C@@H]1c1ccc(O)c(O)c1)c1ccc(O)cc1 | PNLIP | enzyme activity, inhibitor |  | 10 µM | 55.8% |
| C/C(=N\OCCCCN1CCCCC1)c1cccc(C(F)(F)F)c1 | Sigmar1 | radioligand binding |  | 10 µM | 99.4% |
| N#Cc1cccc(Nc2ncnc3[nH]c4cc(Br)ccc4c23)c1 | PTK6 | enzyme activity, inhibitor, ADP detection |  | 2 µM | 44.2% |
| COc1cc(C(=O)NC2CCC(N3CCN(CC4CCC5(CCCC5)C4)CC3)CC2)c(F)cc1Nc1ncc2c(n1)N(C1CCCC1(F)F)CC(F)(F)C(=O)N2C (stereo not drawn) | Tyrosine-protein kinase Fgr (FGR, Homo sapiens, UniProt P09769) | cell-free assay, TR-FRET |  | 10 µM | 0.45% |
| C/C(=N\OCCN1CCCC1)c1ccccc1C(F)(F)F | Sigmar1 | radioligand binding |  | 10 µM | 85.8% |

| Compound | target | test | system | setting | inhibition |
| --- | --- | --- | --- | --- | --- |
| C[C@]12CC[C@@H]3c4cc(I)c(O)c(I)c4CC[C@H]3[C@@H]1CCC2=O | AKR1C2 | enzyme activity, inhibitor, absorbance |  | 100 µM, pH 9 | 62.2% |
| Cc1cccc(/C=C/C(=O)c2cnn(-c3ccccc3)c2C)c1 | AMY2 | enzyme activity, inhibitor, absorbance |  | 400 µM | 42.4% |
| COc1ccc(C(=O)NO)cc1NC(=O)c1ccc(Cl)cc1 | hdac10 |  |  | 1 µM | 31% |
| C/C(=N\OCCN1CCCCC1)c1ccc(C(F)(F)F)cc1 | Sigmar1 | radioligand binding |  | 10 µM | 53.9% |
| CC(=O)OC1CCC2(C)C(CCC3(C)C2CCC2C(C4=CC(C=C(C)C)OC4=O)CCC23C)C1(C)C (stereo not drawn) | α-glucosidase (yeast) |  |  | 50 µM, added: PNPG substrate | 53.6 ± 3.64% |
| O=C(/C=C/c1cccc(Cl)c1)NO | hdac10 |  |  | 1 µM | 69% |
| O=C(NCc1ccccc1)c1cc(S(=O)(=O)NCc2ccccc2)ccc1Cl | Ectonucleoside triphosphate diphosphohydrolase 8 (Homo sapiens, UniProt Q5MY95) | enzyme activity, inhibitor, absorbance |  | 100 µM | 3% |
| Oc1cccc(Nc2ncnc3[nH]c4cc(Br)ccc4c23)c1 | PTK6 | enzyme activity, inhibitor, ADP detection |  | 2 µM | 77.5% |
| O=C(c1ccc(Oc2ccc(Cl)cc2)c([N+](=O)[O-])c1)C(Cl)Cl | PDK1 | kinase activity, inhibitor, Kinase-Glo |  | 10 µM, added: E2 subunit | 51.3% |
| COc1ccc(C(=O)NO)cc1NC(=O)c1cccc(-c2ccccc2)c1 | hdac10 |  |  | 0.1 µM | < 10% |
| NC(=O)c1ccc(C(=O)NOCc2ccc(Sc3cccc(Cl)c3)c(C(F)(F)F)c2)cc1 | Histone deacetylase 4 (HDAC4, Homo sapiens, UniProt P56524) | cell-free assay, inhibitor |  | 100 µM | 0.4% |
| Nc1ncnc2c1ncn2[C@@H]1O[C@H](CNc2c(NC(=O)CCC(=O)c3ccccc3C(=O)O)c(=O)c2=O)[C@@H](O)[C@H]1O | 2-succinylbenzoate--CoA ligase (menE, Escherichia coli, UniProt P37353) | enzyme activity, inhibitor, MenE–MenB coupled |  | concentration not given | inactive |
| O=c1c(-c2nc3ccccc3s2)cc2c(n1NS(=O)(=O)c1ccc(Cl)cc1)CCCCCC2 | Ubiquitin carboxyl-terminal hydrolase 7 (USP7, Homo sapiens, UniProt Q93009) | enzyme activity, inhibitor, fluorescence |  | 0.1 µg/mL | 3.15% |
| C[C@@]12CC[C@@H]3c4cc(Cl)c(O)cc4CC[C@H]3[C@@H]1CCC2=O | AKR1C2 | enzyme activity, inhibitor, absorbance |  | 10 µM, pH 9 | 83% |
| O=C(Nc1ccc(C(F)(F)F)cc1)Nc1nc2ccccc2s1 | Beta-glucuronidase (uidA, Escherichia coli, UniProt P05804) | enzyme activity, inhibitor, absorbance |  | 100 µM | 58.2% |
| Nc1ncnc2c1ncn2[C@@H]1O[C@H](COS(=O)(=O)NC(=O)[C@@H]2CCCN2)[C@@H](O)[C@H]1O | Bifunctional glutamate/proline--tRNA ligase, prolyl-tRNA synthetase domain (EPRS1, Homo sapiens, UniProt P07814) | binding, immobilised protein |  | 10 nM, added: [3H]-halofuginone | inhibited |
| CC(C)Cn1cc(-c2ccnc(Nc3ccc(OCCCCCCC(=O)NO)cc3)n2)nn1 | CDK4 with cyclin D3 | enzyme activity, inhibitor, TR-FRET |  | 5 µM | 48.9% |
| O=C(/C=C/c1cc(F)ccc1Br)NO | hdac10 |  |  | 0.1 µM | 12% |
| O=C(CCCCCCOc1ccc(Nc2ncc(F)c(-c3cn(C4CCCCC4)nn3)n2)cc1)NO | CDK4 with cyclin D3 | enzyme activity, inhibitor, TR-FRET |  | 5 µM | 17% |
| O=C(/C=C/c1ccc2ccccc2c1)NO | hdac10 |  |  | 1 µM | 64% |
| COCC12C(=O)NC3C4(C(OC)CC1O)C1CC5(O)C(OC)C(O)C(OC(C)=O)(C1C5OC(=O)c1ccccc1)C3(O)C(OC)C24 (stereo not drawn) | Ribosomal protein S6 kinase beta-2 (RPS6KB2, Homo sapiens, UniProt Q9UBS0) | enzyme activity |  | 25 µM | inhibited |
| O=C(CN1C(C(=O)c2ccccc2)=C(O)c2ccccc2S1(=O)=O)Nc1ccccc1Br | AMY2 | enzyme activity, inhibitor, absorbance |  | 500 µM | 70.8% |
| CN(CCON=C(c1ccccc1)c1ccc(C(F)(F)F)cc1)Cc1ccccc1 (mixture of isomers) | Sigmar1 | radioligand binding |  | 10 µM | 94.8% |
| O=C1CC(=O)c2cc(S(=O)(=O)n3cnc4ccccc43)ccc21 | ELANE | enzyme activity, inhibitor, fluorescence |  | 50 µM | 53.5% |
| O=C1C[C@H](c2ccc(O)c(O)c2)c2c(cc(O)c3c2O[C@H](c2ccc(O)c(O)c2)[C@H](O)C3)O1 | α-glucosidase (Saccharomyces cerevisiae) | inhibitor |  | 10 µg/mL, added: pNPG | 45.2 ± 1.87% |
| O=C(/C=C/c1ccccc1Br)NO | hdac10 |  |  | 1 µM | 85% |
| CC(C)c1ccc(COc2ccc(CC(=O)NCCN)cc2Cl)cc1 | PDK1 | enzyme activity, inhibitor, ATP luminescence |  | 2 µM | 53.3% |
